Published values gathered from unrelated publications.
Lines come from different studies, so protocols differ.
Organism: Micrococcus luteus

SMILES	assay	system	conditions	endpoint	value
CC[C@H](C)[C@@H]1NC(=O)[C@@H]2CCCN2C(=O)[C@H](C)NC(=O)[C@H](CC(C)C)NC(=O)[C@@H]2CCCN2C(=O)[C@H](C)NC(=O)[C@@H]2CSSC[C@H](NC(=O)[C@H](C)NC(=O)[C@H](C)NC(=O)[C@H](Cc3ccc(O)cc3)NC(=O)[C@@H]3CCCN3C(=O)CNC(=O)[C@H](Cc3c[nH]c4ccccc34)NC1=O)C(=O)N[C@@H](CC(C)C)C(=O)N[C@@H](CO)C(=O)N[C@@H](C)C(=O)N[C@H]1CSSC[C@H](NC(=O)[C@H](C(C)C)NC(=O)[C@@H]3CCCN3C(=O)CNC(=O)CNC(=O)CNC(=O)[C@H](C)NC(=O)[C@H](C)NC(=O)[C@H](CC(C)C)NC1=O)C(=O)N[C@@H](CC(C)C)C(=O)N[C@@H](C)C(=O)N[C@@H](C(C)C)C(=O)N2		CMCC(B)28001		MIC	> 128 µg/mL
CC(C)C[C@H](NC(=O)[C@H](Cc1ccccc1)NC(=O)[C@H](CCC(N)=O)NC(=O)[C@H](Cc1ccc(O)cc1)NC(=O)[C@H](CCCCN)NC(=O)[C@@H]1CCCN1C(=O)[C@H](CCCNC(=N)N)NC(=O)[C@H](CCC(N)=O)NC(=O)[C@H](Cc1c[nH]c2ccccc12)NC(=O)[C@H](CS)NC(=O)[C@H](Cc1c[nH]c2ccccc12)NC(=O)[C@H](Cc1ccccc1)NC(=O)[C@H](CCCNC(=N)N)NC(=O)[C@H](CCCCN)NC(=O)[C@H](CCCCN)NC(=O)[C@H](CCCCN)NC(=O)[C@@H](NC(=O)[C@@H](NC(=O)[C@H](CC(C)C)NC(=O)[C@@H](N)CO)C(C)C)[C@@H](C)O)C(=O)O		NCTC 2665		MBC/MIC ratio	1.28
Cc1ccc2[nH]c3c(c2c1)CCCC3NCCc1ccc(Br)cc1 (centres unmarked)	broth microdilution	DSM 1790		MIC	2 µg/mL
Cc1ccc2nc(C)c(C(=O)NCc3ccccc3)n2c1	microbial growth	ATCC10240	2 mM	inhibition zone	0 mm
CC(C)C[C@H](NC(=O)[C@H](CCCCN)NC(=O)[C@H](C)NC(=O)[C@H](CC(C)C)NC(=O)[C@H](CCCCN)NC(=O)[C@H](CCC(N)=O)NC(=O)[C@H](CCCCN)NC(=O)[C@H](CC(C)C)NC(=O)[C@H](CCCCN)NC(=O)[C@H](CCC(N)=O)NC(=O)[C@H](CC(C)C)NC(=O)[C@H](CCCCN)NC(=O)[C@H](C)NC(=O)[C@H](CCCCN)NC(=O)[C@H](CC(C)C)NC(=O)[C@H](CCCCN)NC(=O)[C@H](C)NC(=O)[C@H](CC(C)C)NC(=O)[C@H](CCCCN)NC(=O)[C@H](CCC(N)=O)NC(=O)[C@@H](N)CCCCN)C(N)=O	broth microdilution	ATCC 7468	24 h	MIC	7.1 µM
CCc1ccn2c(C(=O)N(C)C)c(C)nc2c1	microbial growth	ATCC10240	2 mM, 20 h	inhibition zone	0 mm
CC[C@H](C)[C@H](N)C(=O)N1CCC[C@H]1C(=O)N[C@@H](Cc1ccccc1)C(=O)N[C@@H](Cc1c[nH]c2ccccc12)C(=O)N[C@@H](CCCNC(=N)N)C(=O)N[C@@H](Cc1c[nH]c2ccccc12)C(=O)N[C@@H](CC(C)C)C(=O)N[C@@H](CC(C)C)C(=O)N[C@@H](CCC(N)=O)C(=O)N[C@@H](CCCNC(=N)N)C(=O)N[C@@H](CC(C)C)C(=O)N1CCC[C@H]1C(=O)NCC(=O)O	broth microdilution	ATCC 4698		MIC	4.76 µM
CCCCCCCCCCCC(=O)C(C)C(=O)N1CCC[C@H]1C(=O)NC(C)(C)C(=O)NC(C)(C)C(=O)NC(C)(C)C(=O)N[C@](C)(CC)C(=O)NCCC(=O)N[C@@H](C)C(=O)N[C@](C)(CC)C(=O)N[C@@H](C)C(=O)N[C@@H](CC(C)C)C(=O)N[C@](C)(CC)C(=O)NCCC(=O)N[C@@H](C)C(=O)N[C@](C)(CC)C(=O)NCCC(=O)N[C@@H](C)C(=O)NC(C)(C)C(=O)NC(C)(C)C(=O)NC(C)(C)C(=O)N[C@@H](C)C(=O)N[C@@H](CC(=O)O)C(=O)O (some centres unmarked)		ATCC 4698		MIC	> 128 µg/mL

Excerpt of the above:
SMILES	assay	system	conditions	endpoint	value
Cc1ccc2nc(C)c(C(=O)NCc3ccccc3)n2c1	microbial growth	ATCC10240	2 mM	inhibition zone	0 mm
